Published values collected from several papers.
Lines come from different studies, so protocols differ.
4'-phosphopantetheinyl transferase PptT: 4'-phosphopantetheinyl transferase PptT (Mycobacterium tuberculosis, UniProt O33336)
Sequence of UniProt O33336 (whole entry, looked up): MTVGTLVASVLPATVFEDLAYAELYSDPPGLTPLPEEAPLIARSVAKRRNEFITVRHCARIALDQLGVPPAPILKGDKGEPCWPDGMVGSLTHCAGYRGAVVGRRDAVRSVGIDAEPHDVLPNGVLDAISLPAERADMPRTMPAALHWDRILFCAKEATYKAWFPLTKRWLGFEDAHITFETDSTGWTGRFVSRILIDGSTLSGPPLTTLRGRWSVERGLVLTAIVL
Sequence of UniProt Q08499 (whole entry, looked up): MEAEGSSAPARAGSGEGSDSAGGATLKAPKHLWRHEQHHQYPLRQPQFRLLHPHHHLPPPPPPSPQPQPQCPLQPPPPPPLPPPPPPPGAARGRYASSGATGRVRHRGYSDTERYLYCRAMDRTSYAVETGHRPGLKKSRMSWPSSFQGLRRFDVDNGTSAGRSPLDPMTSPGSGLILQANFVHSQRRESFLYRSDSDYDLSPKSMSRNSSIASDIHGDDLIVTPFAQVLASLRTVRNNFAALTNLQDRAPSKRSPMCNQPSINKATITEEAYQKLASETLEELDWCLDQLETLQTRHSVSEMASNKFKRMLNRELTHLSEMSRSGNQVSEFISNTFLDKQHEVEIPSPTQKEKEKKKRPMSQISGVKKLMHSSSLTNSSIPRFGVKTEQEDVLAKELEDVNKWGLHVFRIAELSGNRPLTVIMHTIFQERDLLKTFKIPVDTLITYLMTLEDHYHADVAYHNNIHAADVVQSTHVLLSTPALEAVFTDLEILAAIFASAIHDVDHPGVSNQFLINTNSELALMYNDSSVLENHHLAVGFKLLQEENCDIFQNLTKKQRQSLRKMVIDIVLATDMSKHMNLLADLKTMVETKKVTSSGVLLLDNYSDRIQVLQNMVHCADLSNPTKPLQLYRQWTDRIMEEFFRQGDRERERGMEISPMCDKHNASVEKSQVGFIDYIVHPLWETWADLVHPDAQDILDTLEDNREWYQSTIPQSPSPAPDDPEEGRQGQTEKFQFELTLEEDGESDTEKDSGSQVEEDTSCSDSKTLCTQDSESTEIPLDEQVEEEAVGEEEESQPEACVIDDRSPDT
Sequence of UniProt P23458 (whole entry, looked up): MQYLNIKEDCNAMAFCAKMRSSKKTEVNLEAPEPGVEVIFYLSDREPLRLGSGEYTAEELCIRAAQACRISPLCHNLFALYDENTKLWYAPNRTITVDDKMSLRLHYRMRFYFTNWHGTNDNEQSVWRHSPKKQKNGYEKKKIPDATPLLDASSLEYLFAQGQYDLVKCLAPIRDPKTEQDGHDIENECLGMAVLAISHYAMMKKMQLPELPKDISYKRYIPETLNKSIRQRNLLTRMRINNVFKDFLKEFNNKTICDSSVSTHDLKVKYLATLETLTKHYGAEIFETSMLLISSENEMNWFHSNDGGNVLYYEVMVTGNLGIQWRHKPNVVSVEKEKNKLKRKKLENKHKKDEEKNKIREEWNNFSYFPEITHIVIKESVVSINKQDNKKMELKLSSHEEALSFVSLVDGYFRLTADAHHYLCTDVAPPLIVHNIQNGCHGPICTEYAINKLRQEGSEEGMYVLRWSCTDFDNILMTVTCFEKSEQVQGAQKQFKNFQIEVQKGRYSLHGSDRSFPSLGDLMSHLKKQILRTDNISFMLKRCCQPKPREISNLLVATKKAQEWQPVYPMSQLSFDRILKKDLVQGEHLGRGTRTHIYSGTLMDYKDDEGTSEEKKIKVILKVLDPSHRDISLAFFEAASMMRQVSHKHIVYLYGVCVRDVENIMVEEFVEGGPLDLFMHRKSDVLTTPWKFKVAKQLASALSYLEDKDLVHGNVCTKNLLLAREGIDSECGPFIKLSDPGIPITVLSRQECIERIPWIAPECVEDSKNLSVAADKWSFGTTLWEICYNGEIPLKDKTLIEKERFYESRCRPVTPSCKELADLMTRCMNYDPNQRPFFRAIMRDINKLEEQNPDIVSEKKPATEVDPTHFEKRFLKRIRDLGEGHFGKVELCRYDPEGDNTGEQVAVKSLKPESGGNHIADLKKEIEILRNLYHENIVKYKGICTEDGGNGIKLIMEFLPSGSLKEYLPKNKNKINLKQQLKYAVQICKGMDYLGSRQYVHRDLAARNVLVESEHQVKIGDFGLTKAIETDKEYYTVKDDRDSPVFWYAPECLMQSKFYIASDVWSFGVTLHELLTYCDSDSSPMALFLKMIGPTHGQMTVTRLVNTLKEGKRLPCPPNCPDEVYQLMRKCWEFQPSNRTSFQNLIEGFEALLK
Sequence of UniProt Q86Y07 (whole entry, looked up): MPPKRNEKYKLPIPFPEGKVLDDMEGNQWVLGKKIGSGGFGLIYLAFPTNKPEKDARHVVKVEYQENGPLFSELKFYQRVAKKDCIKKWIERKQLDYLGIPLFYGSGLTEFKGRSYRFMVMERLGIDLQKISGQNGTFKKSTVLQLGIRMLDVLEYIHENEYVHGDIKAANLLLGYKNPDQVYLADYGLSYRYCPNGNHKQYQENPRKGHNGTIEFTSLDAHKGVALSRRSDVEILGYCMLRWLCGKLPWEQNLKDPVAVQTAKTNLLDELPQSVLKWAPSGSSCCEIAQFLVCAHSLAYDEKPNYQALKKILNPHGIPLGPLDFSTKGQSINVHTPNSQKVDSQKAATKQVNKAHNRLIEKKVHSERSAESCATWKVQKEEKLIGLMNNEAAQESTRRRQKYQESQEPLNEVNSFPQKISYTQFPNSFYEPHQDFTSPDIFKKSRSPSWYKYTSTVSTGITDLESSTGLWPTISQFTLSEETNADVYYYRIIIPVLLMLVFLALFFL
Sequence of UniProt Q16659 (whole entry, looked up): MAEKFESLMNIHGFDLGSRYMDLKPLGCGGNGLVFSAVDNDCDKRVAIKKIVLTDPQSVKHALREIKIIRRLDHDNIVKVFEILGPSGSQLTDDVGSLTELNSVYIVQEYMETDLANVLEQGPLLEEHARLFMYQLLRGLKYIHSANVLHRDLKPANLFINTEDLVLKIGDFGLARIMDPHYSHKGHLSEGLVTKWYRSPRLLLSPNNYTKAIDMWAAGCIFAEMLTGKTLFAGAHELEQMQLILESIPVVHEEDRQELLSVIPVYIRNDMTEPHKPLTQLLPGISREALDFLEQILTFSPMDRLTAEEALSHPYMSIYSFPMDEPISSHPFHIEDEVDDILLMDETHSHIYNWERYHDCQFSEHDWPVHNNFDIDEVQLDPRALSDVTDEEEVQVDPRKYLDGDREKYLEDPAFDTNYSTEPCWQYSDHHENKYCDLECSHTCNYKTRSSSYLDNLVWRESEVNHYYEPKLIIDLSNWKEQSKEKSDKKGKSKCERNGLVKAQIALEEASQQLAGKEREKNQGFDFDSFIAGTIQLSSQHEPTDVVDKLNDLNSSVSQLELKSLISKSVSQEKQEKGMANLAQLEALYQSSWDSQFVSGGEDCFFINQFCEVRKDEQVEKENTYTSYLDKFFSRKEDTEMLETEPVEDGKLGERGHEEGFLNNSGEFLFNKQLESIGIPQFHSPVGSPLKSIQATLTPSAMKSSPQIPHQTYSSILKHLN
Sequence of UniProt O00418 (whole entry, looked up): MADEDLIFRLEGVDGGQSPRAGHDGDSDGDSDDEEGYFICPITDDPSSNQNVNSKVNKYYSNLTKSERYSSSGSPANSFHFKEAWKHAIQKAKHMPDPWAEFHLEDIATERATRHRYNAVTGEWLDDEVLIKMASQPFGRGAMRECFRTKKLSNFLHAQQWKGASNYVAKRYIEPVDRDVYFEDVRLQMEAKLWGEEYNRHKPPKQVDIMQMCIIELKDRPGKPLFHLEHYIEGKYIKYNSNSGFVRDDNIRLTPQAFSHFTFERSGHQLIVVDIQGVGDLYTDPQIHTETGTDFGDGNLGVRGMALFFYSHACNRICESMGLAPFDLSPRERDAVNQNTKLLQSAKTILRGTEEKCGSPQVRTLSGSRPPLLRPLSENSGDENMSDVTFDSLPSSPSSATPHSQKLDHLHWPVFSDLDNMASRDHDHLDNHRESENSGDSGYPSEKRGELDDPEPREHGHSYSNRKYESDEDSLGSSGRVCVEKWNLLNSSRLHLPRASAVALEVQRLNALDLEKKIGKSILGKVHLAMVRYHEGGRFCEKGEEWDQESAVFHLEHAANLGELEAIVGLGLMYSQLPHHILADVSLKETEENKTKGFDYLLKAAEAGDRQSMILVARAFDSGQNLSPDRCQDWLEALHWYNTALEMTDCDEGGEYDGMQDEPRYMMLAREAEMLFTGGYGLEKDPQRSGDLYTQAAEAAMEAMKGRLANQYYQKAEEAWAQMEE
Sequence of UniProt P40763 (whole entry, looked up): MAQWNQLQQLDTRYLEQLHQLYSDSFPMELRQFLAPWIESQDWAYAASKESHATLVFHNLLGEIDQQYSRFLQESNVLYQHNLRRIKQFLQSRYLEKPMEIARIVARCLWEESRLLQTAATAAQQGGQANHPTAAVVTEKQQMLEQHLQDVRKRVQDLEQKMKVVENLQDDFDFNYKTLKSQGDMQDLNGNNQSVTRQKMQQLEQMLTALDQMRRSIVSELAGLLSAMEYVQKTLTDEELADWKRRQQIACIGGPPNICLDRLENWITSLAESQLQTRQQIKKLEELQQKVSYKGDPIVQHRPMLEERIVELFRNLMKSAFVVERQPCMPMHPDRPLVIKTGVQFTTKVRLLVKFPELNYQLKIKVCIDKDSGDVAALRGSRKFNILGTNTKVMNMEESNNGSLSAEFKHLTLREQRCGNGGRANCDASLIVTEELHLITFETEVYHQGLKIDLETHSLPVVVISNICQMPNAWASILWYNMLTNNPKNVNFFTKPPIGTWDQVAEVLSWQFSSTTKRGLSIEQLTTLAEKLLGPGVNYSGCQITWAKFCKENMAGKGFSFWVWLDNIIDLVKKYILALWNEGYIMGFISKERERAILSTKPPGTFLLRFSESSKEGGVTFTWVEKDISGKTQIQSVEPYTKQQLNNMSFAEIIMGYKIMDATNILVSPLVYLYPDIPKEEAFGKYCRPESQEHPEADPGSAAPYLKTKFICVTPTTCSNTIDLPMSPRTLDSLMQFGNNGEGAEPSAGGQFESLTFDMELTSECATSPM

| SMILES | target or system | test | system | conditions | measurement | result |
| --- | --- | --- | --- | --- | --- | --- |
| CN1CCC[C@H]1c1cccnc1 | Beta-3 adrenergic receptor (ADRB3, Homo sapiens, UniProt P13945) | ligand displacement | – | 50 µM | inhibition | 2.19% |
| Cc1nn(C)cc1-c1nc2c(N3CCN(Cc4ccc(Cl)cc4)CC3)c(Cl)cnc2[nH]1 | Mitogen-activated protein kinase 6 (MAPK6, Homo sapiens, UniProt Q16659) | binding, competition with immobilised ligand | – | 1 µM | remaining binding | 87% |
| Nc1ncc(-c2nc(N3CCOCC3)nc(N3CCOCC3)n2)c(C(F)F)n1 | Tyrosine-protein kinase JAK1, JH2 (JAK1, Homo sapiens, UniProt P23458) | binding, competition with immobilised ligand | – | 10 µM | remaining binding | 0.05% |
| Oc1cccc(N2[C@@H]3CC[C@H]2CN(CCCc2ccccc2)C3)c1 | Mu-type opioid receptor (OPRM1, Homo sapiens, UniProt P35372) | cAMP, agonist | OPRM1 | – | Emax | 98.9% |
| Nc1ccncc1 | Potassium/sodium hyperpolarization-activated cyclic nucleotide-gated channel 1 (Homo sapiens, UniProt O60741) | ion current, inhibitor | – | 3 µM | inhibition | -220% |
| NC(=S)c1ccc(Cn2c(=S)[nH]c3ccc(Cl)cc3c2=O)cn1 | 4'-phosphopantetheinyl transferase PptT | enzyme activity, inhibitor, FP | – | – | IC50 | 0.09 µM |
| N.N.[Cl][Pt][Cl] | K562 | cell growth or viability, ATP luminescence | – | 72 h | IC50 | 8.33 µM |
| CC(C)C[C@H](NC(=O)[C@H](Cc1ccccc1)NC(=O)[C@H](Cc1ccccc1)NC(=O)Cc1ccc(-c2ccccc2)cc1)C(=O)N[C@@H](CCCCN)C(=O)N[C@@H](CCCNC(=N)N)C(=O)N[C@H](C(=O)N[C@@H](Cc1c[nH]c2ccccc12)C(=O)N[C@@H](CCCCN)C(=O)N[C@@H](CCCNC(=N)N)C(=O)O)C(C)C | – | metabolic stability | monkey, liver microsomes | 15 min | compound remaining | 17.3% |
| COc1ncccc1-c1cnn2ccc(N3CCN(C(=O)OC(C)C)CC3)nc12 | Serine/threonine-protein kinase VRK2 (VRK2, Homo sapiens, UniProt Q86Y07) | binding, competition with immobilised ligand | – | 1 µM | remaining binding | 99% |
| C#Cc1n[nH]c2c(-c3cn(C(C)c4ccccn4)c(=O)[nH]c3=O)cc(F)cc12 (centres unmarked) | Eukaryotic elongation factor 2 kinase (EEF2K, Homo sapiens, UniProt O00418) | enzyme activity, inhibitor | – | 1 µM | inhibition | 4.5% |
| CC(C)CC(=O)OC[C@H]1O[C@@](C#N)(c2ccc3c(N)ncnn23)[C@H](O)[C@@H]1O | 3',5'-cyclic-AMP phosphodiesterase 4D (PDE4D, Homo sapiens, UniProt Q08499) | enzyme activity, inhibitor | – | 20 µM | inhibition | 5% |
| NC(=O)CC[C@H](NC(=O)[C@@H]1CC[C@@H]2CCN(C(=O)CCCCCC#Cc3cccc4c3CN(C3CCC(=O)NC3=O)C4=O)C[C@H](NC(=O)c3cc4cc(C(F)(F)P(=O)(O)O)ccc4[nH]3)C(=O)N21)C(=O)NC(c1ccccc1)c1ccccc1 (some centres unmarked) | Signal transducer and activator of transcription 3 (STAT3, Homo sapiens, UniProt P40763) | protein level, degrader, luciferase | HeLa | – | Dmax | 86 to 88% |
| [2H]c1c([2H])c([C@]2([2H])CCCN2C(=O)C(C)(C)Oc2ccc3cn[nH]c3c2)c([2H])c([2H])c1C([2H])([2H])[2H] | Serine/threonine-protein kinase TNNI3K (TNNI3K, Homo sapiens, UniProt Q59H18) | binding, competition with immobilised ligand | – | 1 µM | remaining binding | 47% |
| NC(=O)c1cc2[nH]c(=S)n(Cc3cccnc3)c(=O)c2cc1Cl | 4'-phosphopantetheinyl transferase PptT | enzyme activity, inhibitor, FP | – | – | IC50 | 3.13 µM |

Excerpt of the above:
| SMILES | target or system | test | system | conditions | measurement | result |
| --- | --- | --- | --- | --- | --- | --- |
| CN1CCC[C@H]1c1cccnc1 | Beta-3 adrenergic receptor (ADRB3, Homo sapiens, UniProt P13945) | ligand displacement | – | 50 µM | inhibition | 2.19% |
